Assay results from different studies.
Compare with care: the assays were run in different laboratories. ± gives the spread as reported.
SIK3: Serine/threonine-protein kinase SIK3 (SIK3, Homo sapiens, UniProt Q9Y2K2)
Chain of UniProt Q9Y2K2 (whole entry, looked up): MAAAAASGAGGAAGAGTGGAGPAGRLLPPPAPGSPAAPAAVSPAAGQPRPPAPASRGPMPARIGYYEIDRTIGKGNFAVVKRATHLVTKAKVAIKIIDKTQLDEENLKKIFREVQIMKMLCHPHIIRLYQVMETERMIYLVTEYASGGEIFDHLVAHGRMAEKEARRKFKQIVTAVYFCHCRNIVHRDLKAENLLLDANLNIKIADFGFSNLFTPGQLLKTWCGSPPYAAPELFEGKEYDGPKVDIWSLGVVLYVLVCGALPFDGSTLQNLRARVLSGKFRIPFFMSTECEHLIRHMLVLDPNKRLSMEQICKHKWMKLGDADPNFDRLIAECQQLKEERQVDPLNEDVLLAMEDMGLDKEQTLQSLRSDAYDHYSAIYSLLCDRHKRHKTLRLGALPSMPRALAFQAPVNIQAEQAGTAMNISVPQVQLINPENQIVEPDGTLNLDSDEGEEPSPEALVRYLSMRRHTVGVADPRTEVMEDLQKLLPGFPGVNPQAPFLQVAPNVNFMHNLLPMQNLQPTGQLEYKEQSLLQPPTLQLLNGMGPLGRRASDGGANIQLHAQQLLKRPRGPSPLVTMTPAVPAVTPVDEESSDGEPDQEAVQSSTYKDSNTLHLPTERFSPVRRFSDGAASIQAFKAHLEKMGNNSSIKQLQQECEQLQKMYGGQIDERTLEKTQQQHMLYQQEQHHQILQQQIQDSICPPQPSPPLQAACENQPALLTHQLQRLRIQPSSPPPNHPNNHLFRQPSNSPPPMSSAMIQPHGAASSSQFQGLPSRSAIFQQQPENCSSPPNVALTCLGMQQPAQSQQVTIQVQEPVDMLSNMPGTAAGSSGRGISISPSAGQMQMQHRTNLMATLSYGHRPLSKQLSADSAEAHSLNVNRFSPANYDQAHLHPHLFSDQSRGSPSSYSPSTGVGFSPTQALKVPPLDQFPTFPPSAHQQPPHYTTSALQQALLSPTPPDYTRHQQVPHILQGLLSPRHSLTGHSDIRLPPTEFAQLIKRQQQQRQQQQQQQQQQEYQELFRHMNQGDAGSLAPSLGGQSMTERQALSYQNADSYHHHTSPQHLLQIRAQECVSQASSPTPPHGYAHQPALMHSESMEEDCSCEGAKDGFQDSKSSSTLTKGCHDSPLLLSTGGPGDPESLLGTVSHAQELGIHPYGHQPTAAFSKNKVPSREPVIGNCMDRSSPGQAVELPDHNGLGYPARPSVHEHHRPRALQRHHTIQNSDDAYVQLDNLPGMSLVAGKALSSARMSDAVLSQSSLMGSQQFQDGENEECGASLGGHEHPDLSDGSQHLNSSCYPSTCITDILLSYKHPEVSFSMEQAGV
rep main protease: Replicase polyprotein 1ab, main protease (rep, Human coronavirus HKU1, UniProt P0C6X2)
Adenosylmethionine-8-amino-7-oxononanoate aminotransferase: Adenosylmethionine-8-amino-7-oxononanoate aminotransferase (Mycobacterium tuberculosis, UniProt P9WQ81)
Chain of UniProt P9WQ81 (whole entry, looked up): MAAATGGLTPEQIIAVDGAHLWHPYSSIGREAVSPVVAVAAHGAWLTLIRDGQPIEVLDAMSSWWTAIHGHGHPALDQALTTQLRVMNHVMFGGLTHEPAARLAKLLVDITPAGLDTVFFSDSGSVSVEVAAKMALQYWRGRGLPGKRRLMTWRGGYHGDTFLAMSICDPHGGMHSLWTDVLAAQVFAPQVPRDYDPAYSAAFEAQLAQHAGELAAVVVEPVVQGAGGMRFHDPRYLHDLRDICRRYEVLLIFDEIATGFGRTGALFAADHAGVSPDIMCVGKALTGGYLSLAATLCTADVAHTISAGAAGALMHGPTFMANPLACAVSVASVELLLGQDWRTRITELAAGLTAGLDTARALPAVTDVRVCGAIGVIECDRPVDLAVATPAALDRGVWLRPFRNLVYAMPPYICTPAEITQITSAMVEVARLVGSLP
Dihydrolipoyl dehydrogenase: Dihydrolipoyl dehydrogenase (Mycobacterium tuberculosis, UniProt P9WHH9)
Chain of UniProt P9WHH9 (whole entry, looked up): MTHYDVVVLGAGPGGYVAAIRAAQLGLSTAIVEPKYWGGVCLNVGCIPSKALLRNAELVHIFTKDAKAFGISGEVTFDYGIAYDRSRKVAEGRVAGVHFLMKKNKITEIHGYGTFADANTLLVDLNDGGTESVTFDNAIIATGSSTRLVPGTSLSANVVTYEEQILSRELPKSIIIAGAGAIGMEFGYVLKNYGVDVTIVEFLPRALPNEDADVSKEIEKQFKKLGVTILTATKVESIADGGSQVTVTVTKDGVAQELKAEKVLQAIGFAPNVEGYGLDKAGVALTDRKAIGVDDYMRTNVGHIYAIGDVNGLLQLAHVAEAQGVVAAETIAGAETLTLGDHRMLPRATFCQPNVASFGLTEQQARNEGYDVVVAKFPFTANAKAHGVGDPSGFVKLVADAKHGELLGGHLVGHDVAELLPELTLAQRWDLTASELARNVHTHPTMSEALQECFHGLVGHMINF
Genome polyprotein protease: Genome polyprotein, protease (Coxsackievirus B3, UniProt P03313)
Chain of UniProt P03313 (whole entry, looked up): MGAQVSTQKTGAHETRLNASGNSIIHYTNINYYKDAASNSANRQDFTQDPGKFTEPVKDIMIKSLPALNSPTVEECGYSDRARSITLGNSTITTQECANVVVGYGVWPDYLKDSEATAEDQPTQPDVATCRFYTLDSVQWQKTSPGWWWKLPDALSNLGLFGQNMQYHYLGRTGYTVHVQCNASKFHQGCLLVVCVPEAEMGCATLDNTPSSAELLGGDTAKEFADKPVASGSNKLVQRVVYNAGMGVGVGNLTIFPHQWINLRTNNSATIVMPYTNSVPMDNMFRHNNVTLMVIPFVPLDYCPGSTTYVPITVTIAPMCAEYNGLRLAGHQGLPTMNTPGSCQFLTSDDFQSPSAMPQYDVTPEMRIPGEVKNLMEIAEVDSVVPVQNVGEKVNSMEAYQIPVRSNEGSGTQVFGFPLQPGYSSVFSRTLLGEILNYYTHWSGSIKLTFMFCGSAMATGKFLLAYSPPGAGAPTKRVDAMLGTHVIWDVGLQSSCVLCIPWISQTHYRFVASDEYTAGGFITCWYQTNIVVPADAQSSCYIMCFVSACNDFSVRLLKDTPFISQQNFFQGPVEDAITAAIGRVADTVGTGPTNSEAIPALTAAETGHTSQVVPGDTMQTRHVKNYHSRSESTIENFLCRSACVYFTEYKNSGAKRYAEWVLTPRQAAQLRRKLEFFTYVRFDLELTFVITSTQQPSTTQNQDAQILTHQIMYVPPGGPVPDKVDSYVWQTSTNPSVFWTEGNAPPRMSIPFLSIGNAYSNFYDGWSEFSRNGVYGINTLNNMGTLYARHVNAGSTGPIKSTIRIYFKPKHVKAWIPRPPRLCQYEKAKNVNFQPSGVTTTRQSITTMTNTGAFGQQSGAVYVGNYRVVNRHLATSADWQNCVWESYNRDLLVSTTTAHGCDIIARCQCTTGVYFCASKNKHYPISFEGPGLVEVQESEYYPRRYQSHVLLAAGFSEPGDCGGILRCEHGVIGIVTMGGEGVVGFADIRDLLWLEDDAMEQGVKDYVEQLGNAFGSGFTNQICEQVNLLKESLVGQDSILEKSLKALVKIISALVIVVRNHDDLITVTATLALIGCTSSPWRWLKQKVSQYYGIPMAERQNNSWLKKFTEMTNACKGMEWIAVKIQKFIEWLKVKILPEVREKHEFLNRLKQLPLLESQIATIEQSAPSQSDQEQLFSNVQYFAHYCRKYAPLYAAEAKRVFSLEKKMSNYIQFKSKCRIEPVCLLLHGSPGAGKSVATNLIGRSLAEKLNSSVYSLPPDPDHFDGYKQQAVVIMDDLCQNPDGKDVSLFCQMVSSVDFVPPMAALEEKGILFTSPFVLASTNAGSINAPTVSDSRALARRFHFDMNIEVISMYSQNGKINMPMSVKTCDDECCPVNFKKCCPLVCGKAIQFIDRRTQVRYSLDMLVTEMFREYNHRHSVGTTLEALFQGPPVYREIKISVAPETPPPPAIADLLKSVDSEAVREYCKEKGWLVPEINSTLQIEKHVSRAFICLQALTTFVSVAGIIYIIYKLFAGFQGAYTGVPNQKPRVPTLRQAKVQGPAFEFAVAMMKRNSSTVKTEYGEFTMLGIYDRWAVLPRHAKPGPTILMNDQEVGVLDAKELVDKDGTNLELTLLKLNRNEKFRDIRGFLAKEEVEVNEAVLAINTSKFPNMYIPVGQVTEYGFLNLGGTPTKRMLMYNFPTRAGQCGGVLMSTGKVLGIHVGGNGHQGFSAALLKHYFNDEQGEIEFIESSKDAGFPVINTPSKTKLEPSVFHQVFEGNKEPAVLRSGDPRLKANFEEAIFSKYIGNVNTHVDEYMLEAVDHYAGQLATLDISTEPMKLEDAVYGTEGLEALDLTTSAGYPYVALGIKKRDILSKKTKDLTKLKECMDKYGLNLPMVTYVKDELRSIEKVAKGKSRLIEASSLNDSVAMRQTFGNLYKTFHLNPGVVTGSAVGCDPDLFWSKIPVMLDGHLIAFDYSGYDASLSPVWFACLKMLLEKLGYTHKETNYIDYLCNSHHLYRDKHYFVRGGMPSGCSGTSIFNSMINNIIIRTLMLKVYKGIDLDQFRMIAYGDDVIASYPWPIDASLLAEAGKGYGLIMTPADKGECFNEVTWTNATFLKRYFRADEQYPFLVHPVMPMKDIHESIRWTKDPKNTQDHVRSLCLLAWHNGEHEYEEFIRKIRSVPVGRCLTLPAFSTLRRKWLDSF
DNA ligase: DNA ligase (Enterobacteria phage T4, UniProt P00970)
Chain of UniProt P00970 (whole entry, looked up): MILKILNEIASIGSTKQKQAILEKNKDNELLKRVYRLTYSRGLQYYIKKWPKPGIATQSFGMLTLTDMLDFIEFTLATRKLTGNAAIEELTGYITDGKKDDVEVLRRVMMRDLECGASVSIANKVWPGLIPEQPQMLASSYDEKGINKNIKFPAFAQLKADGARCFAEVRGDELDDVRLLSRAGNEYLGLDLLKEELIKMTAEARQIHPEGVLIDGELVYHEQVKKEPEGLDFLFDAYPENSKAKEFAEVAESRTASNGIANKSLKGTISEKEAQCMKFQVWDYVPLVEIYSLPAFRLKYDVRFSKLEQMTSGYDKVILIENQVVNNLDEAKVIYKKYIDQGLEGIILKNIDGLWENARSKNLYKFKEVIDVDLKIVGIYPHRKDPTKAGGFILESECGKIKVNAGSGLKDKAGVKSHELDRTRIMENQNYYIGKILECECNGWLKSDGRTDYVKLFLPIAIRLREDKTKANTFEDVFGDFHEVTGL

COc1cc(CN2CCN(C)CC2)ccc1Nc1ncc2c(n1)N(C13CC4CC(CC(C4)C1)C3)C(=O)N(c1c(C)cccc1C)C2 — IC50 (SIK3; enzyme activity, inhibitor): > 500 nM
C=CC(=O)NC(CC(=C)C)C(=O)N1CC(C(=O)NC(Cc2ccco2)C(=O)NC)C(c2cccc(C(F)(F)F)c2)C1 (stereo not shown) — IC50 (rep main protease): > 100000 nM
O=c1cc(-c2ccccc2F)[nH]c2cc3c(cc12)OCO3 — IC50 (Adenosylmethionine-8-amino-7-oxononanoate aminotransferase; inhibitor, biochemical): 2400 ± 417 nM
Cc1cnc(N)c(S(=O)(=O)N(C)CC(=O)Nc2ccc(N3CCOCC3)c(Cl)c2)c1 — IC50 (Dihydrolipoyl dehydrogenase; enzyme activity, inhibitor; added: 50 nM enzyme): 56 nM
COc1ccc2c(c1)CCC1C2=NN(C(C)=O)C1c1cccc(I)c1 (stereo not shown) — IC50 (Genome polyprotein protease; enzyme activity, inhibitor): 7000 nM
COc1cc(NC(=O)CN(C)S(=O)(=O)c2cc(C)cnc2N)ccn1 — IC50 (Dihydrolipoyl dehydrogenase; enzyme activity, inhibitor; added: 50 nM enzyme): 196 nM
CCOC(=O)CC(NC(=O)Nc1ccc(NC(=O)NC(CC(=O)OCC)C2OC3OC(C)(C)OC3C2OCc2ccccc2)cc1)C1OC2OC(C)(C)OC2C1OCc1ccccc1 (stereo not shown) — IC50 (DNA ligase; enzyme activity, inhibitor, radiometric): 55000 nM
CC(=O)Nc1ccc(/C=N/NC(=S)Nc2cccc3cccnc23)cc1 — IC50 (Adenosylmethionine-8-amino-7-oxononanoate aminotransferase; inhibitor, biochemical): 272700 ± 1150 nM
CC(C)[C@H](NC(=O)N[C@H](C(=O)N[C@H]1/C=C/CCNC(=O)/C=C/[C@H](C(C)C)NC1=O)C(C)C)C(=O)O — IC50 (Proteasome subunit beta type-9 (Mus musculus, UniProt P28076); inhibitor): 28 nM
CC1(C)OC2OC(C(CCO)NCCCCCCCCCCNC(CCO)C3OC4OC(C)(C)OC4C3OCc3ccccc3)C(OCc3ccccc3)C2O1 (stereo not shown) — IC50 (DNA ligase; enzyme activity, inhibitor, radiometric): 40000 nM
C=CC(=O)N1CCN(c2cc(-c3ccc(C4CCC4)cc3)ncc2C(=O)N[C@H](Cc2ccccc2)C(=O)NC)C(C)C1 (stereo partly shown) — IC50 (rep main protease): > 100000 nM
CCOCC1C(c2ccc(Cl)c(Cl)c2)CC2CCC1N2C (stereo not shown) — IC50 (SLC6A3 (Homo sapiens, UniProt Q01959); inhibitor): 9.12 nM
C=C(C)C1C2OC(=O)C1C1(O)CC3OC34C(=O)OC2C14C (stereo not shown) — IC50 (GABA-A receptor; GABA-A site (alpha1/beta2 interface) (Homo sapiens, UniProt P14867+P47870); ion current, antagonist, two-electrode voltage clamp; oocytes): 2230 nM
C=CC(=O)NC(CC(=C)C)C(=O)N1CC(C(=O)NC(C(=O)NC)C(C)CC)C(c2cccc(C(F)(F)F)c2)C1 (stereo not shown) — IC50 (Replicase polyprotein 1ab, main protease (Human coronavirus OC43, UniProt P0C6X6)): > 100000 nM
CC1(C)OC2OC(C(CCO)NC(=O)Nc3cccc(NC(=O)NC(CCO)C4OC5OC(C)(C)OC5C4OCc4ccccc4)c3)C(OCc3ccccc3)C2O1 (stereo not shown) — IC50 (DNA ligase; enzyme activity, inhibitor, radiometric): 462000 nM
COc1cc(N2CCN(C)CC2)ccc1Nc1ncc2c(n1)N(C1CCC1)C(=O)N(c1c(C)cccc1C)C2 — IC50 (SIK3; enzyme activity, inhibitor): > 20 nM
CC(C)c1nc2cc(O)ccc2c(=O)n1-c1ccc(C#N)cc1 — IC50 (TRPV1 (Homo sapiens, UniProt Q8NER1); ion current, inhibitor, whole-cell patch clamp; HEK293T; 30 s preincubation, +80 mV, added: pH 5): 690 nM
O=c1[nH]c2cc(Cl)cc(Cl)c2c(O)c1Sc1nnnn1-c1ccc(O)cc1 — IC50 (Genome polyprotein protease; enzyme activity, inhibitor): > 50000 nM
CC1C(=NOCc2cc(-c3ccc(Cl)cc3)no2)C(C)C(c2ccc(Br)cc2)OC1c1ccc(Br)cc1 (stereo not shown) — IC50 (DNA gyrase subunit A/DNA gyrase subunit B (Mycobacterium tuberculosis, UniProt P9WG45+P9WG47)): 19200 nM
CC[C@H](C)[C@H](NC(=O)[C@H](CO)NC(=O)[C@H](Cc1ccc(O)cc1)NC(=O)[C@H](CC(=O)O)NC(=O)[C@H](CO)NC(=O)[C@@H](NC(=O)[C@H](Cc1ccccc1)NC(=O)[C@@H](NC(=O)CNC(=O)[C@@H]1CCCN1C(=O)[C@H](C)NC(=O)[C@@H](N)Cc1ccc(O)cc1)[C@@H](C)O)[C@@H](C)CC)C(=O)N[C@@H](C)C(=O)N[C@@H](CCSC)C(=O)N[C@@H](CC(=O)O)C(=O)N[C@@H](CCCCN)C(=O)N[C@H](C(=O)N[C@@H](CCCNC(=N)N)C(=O)N[C@@H](CCC(N)=O)C(=O)N[C@@H](CCC(N)=O)C(=O)N[C@@H](CC(=O)O)C(=O)N[C@@H](Cc1ccccc1)C(=O)N[C@H](C(=O)N[C@@H](CC(N)=O)C(=O)N[C@@H](Cc1c[nH]c2ccccc12)C(=O)N[C@@H](CC(C)C)C(=O)N[C@@H](CC(C)C)C(=O)N[C@@H](C)C(=O)N[C@@H](CCC(N)=O)C(=O)N[C@@H](CCCNC(=N)N)C(=O)NCC(=O)N[C@@H](CCCCN)C(=O)N[C@@H](CCCCN)C(=O)N[C@@H](CO)C(=O)N[C@@H](CC(=O)O)C(=O)N[C@@H](Cc1c[nH]c2ccccc12)C(=O)N[C@@H](CCCCN)C(=O)N[C@@H](Cc1c[nH]cn1)C(=O)N[C@@H](CC(N)=O)C(=O)N[C@H](C(=O)N[C@H](C(=O)N[C@@H](CCC(N)=O)C(=O)O)[C@@H](C)O)[C@@H](C)CC)C(C)C)[C@@H](C)CC — IC50 (Gastric inhibitory polypeptide receptor (Mus musculus, UniProt Q0P543); 4 h, 4 °C): 5.01 nM
Cc1cnc(N)c(S(=O)(=O)N(C)CC(=O)Nc2ccc(C#N)c(Cl)c2)c1 — IC50 (Dihydrolipoyl dehydrogenase; enzyme activity, inhibitor; added: 50 nM enzyme): 1700 nM
O=C1CC(=O)N(c2ccccc2)c2cc(Cl)ccc2N1 — IC50 (Gabrg2/Gabra2, with β3 subunit (Rattus norvegicus, UniProt P18508+P23576); binding, radioligand displacement; HEK293 cell membranes; added: 1 nM [3H]flunitrazepam): 590 ± 120 nM

For quick reference, copied from above:
COc1cc(N2CCN(C)CC2)ccc1Nc1ncc2c(n1)N(C1CCC1)C(=O)N(c1c(C)cccc1C)C2 — IC50 (SIK3; enzyme activity, inhibitor): > 20 nM
CC(C)c1nc2cc(O)ccc2c(=O)n1-c1ccc(C#N)cc1 — IC50 (TRPV1 (Homo sapiens, UniProt Q8NER1); ion current, inhibitor, whole-cell patch clamp; HEK293T; 30 s preincubation, +80 mV, added: pH 5): 690 nM
